# Experimental data pooled from the literature.
# Lines come from different studies, so protocols differ. Numbers after ± are the reported error.
Compound,test,system,conditions,scale,measurement,value
CC(C)[C@H](NC(=O)[C@@H](NC(=O)[C@H](CCCNC(=N)N)NC(=O)[C@H](CCCNC(=N)N)NC(=O)[C@H](CCCNC(=N)N)NC(=O)[C@H](CCC(N)=O)NC(=O)[C@H](CCCNC(=N)N)NC(=O)[C@H](CCCNC(=N)N)NC(=O)[C@H](CCCCN)NC(=O)[C@H](CCCCN)NC(=O)[C@H](CCCNC(=N)N)NC(=O)CN)[C@@H](C)O)C(=O)N[C@H](C(=O)N[C@@H](CO)C(=O)N1CCC[C@H]1C(=O)O)[C@@H](C)O,,"ICR mice, female, lung","intranasal, 10 mg/kg daily, 4 weeks",,organ weight,0.342 ± 0.029 g
CCN(CC)CCOc1ccc(-c2nnn(Cc3ccc(OC)cc3)c2N)cc1,,Caco-2,,,Papp A→B,2.61 ×10⁻⁶ cm/s
CN1Cc2cc(Cl)ccc2-n2c(nnc2C2CCN(c3cccc(F)n3)CC2)C1,,"Sprague-Dawley rats male, striatum","intravenous, 0.03 mg/kg, 30 min",,concentration,3.14 ± 0.31 ng/mL
O=S(=O)(c1ccc2c(c1)OCO2)n1cc(CCCCN2CCC(=C(c3ccc(F)c(F)c3)c3ccc(F)c(F)c3)CC2)nn1,body weight,mouse,10 50 mg/kg,,tolerability,not toxic
N=C(N)NCCC[C@H](NC(=O)[C@H](CCCNC(=N)N)NC(=O)[C@H](CCCNC(=N)N)NC(=O)[C@H](CCC(N)=O)NC(=O)[C@H](CCCNC(=N)N)NC(=O)[C@H](CCCNC(=N)N)NC(=O)[C@H](CCCCN)NC(=O)[C@H](CCCCN)NC(=O)[C@H](CCCNC(=N)N)NC(=O)CNC(=O)[C@H](Cc1ccc(O)cc1)NC(=O)[C@H](Cc1ccccc1)NC(=O)[C@H](Cc1ccccc1)NC(=O)[C@H](Cc1ccccc1)NC(=O)OCC1c2ccccc2-c2ccccc21)C(=O)O,,C57BL/6 mice,"intraperitoneal, 10 mg/kg, 48 h",direction not given,health score,5
CCCCC[C@H]1C(=O)N[C@H](C)C(=O)N(C)[C@@H](CCCCC)C(=O)N(C)[C@H](C)C(=O)N(C)[C@@H](CCCCC)C(=O)N[C@H](C)C(=O)N(C)[C@@H](CCCCC)C(=O)N(C)[C@H](C)C(=O)N1C,PAMPA,,"500 µM, pH 7.4",,log Papp,2.45 ×10⁻⁶ cm/s
CC(C)[C@@H]1NC(=O)CNC(=O)[C@H](CC(N)=O)NC(=O)[C@H](CCCNC(=N)N)NC(=O)[C@H](Cc2ccc(O)cc2)NC(=O)[C@H](C(C)C)NC(=O)[C@@H](NC(=O)[C@@H](NC(=O)[C@H](CC(N)=O)NC(=O)[C@H](Cc2c[nH]c3ccccc23)NC(=O)[C@H](C)NC(=O)[C@H](Cc2ccccc2)NC(=O)CNC(=O)[C@H](CCCCN)NC(=O)[C@H](Cc2ccccc2)NC(=O)[C@H](Cc2ccccc2)NC(=O)[C@H](CCCCN)NC(=O)OCC2c3ccccc3-c3ccccc32)C(C)C)CSSC[C@@H](C(=O)N[C@@H](Cc2c[nH]cn2)C(=O)N[C@@H](CCCNC(=N)N)C(=O)N[C@@H](CCCNC(=N)N)C(=O)N[C@@H](C)C(=O)N[C@@H](CC(N)=O)C(N)=O)NC(=O)[C@H](C(C)C)NC(=O)[C@H](CCCNC(=N)N)NC1=O,,"ICR mice, blood","intraductal mammary, 5 mg/kg, day 5",,plateletcrit,0.03%
CC1(C)C(=O)N(c2ccc(C#N)c(C(F)(F)F)c2)C(=S)N1c1ccc(C(=O)O)c(F)c1,,"human, male, plasma","oral, 160 mg, soft capsule",,Cmax,155 ± 52.8 ng/mL
C(#Cc1cncc(OC[C@@H]2CCN2)c1)c1ccccc1,,"male Sprague-Dawley rat, plasma","oral, 75 mg/kg, 7 h",,concentration,250 ng/mL
N#[11C]c1ccc(-c2csc(NN=C3CCCC3)n2)cc1,,"C57BL/6 mice, male, brain","intravenous, 3 MBq, 30 min",,radioactivity uptake,0.61 ± 0.05 %ID/g
N=C(N)NCCC[C@@H](NC(=O)[C@H](N)Cc1c[nH]c2ccccc12)C(=O)N[C@H](CCCCN)C(=O)N[C@H](Cc1c[nH]c2ccccc12)C(=O)N[C@H](CCCNC(=N)N)C(=O)N[C@H](CCCCN)C(=O)N[C@H](Cc1c[nH]c2ccccc12)C(=O)N[C@H](CCCNC(=N)N)C(=O)N[C@H](CCCCN)C(=O)N[C@H](Cc1c[nH]c2ccccc12)C(=O)N[C@H](CCCNC(=N)N)C(=O)N[C@H](CCCCN)C(N)=O,,mouse,"intraperitoneal, 30 mg/kg single dose, day 6",,survival,100%
CC[C@H](C)[C@H](NC(=O)[C@H](CCCCN)NC(=O)CNC(=O)[C@H](CC(C)C)NC(=O)[C@H](Cc1ccccc1)NC(=O)[C@H](CCCCN)NC(=O)[C@H](CO)NC(=O)[C@H](Cc1ccccc1)NC(=O)[C@H](Cc1c[nH]c2ccccc12)NC(=O)[C@H](CCC(N)=O)NC(=O)[C@@H](NC(=O)[C@H](Cc1ccccc1)NC(=O)CCCCCNC(=O)CN1CCN(CC(=O)O)CCN(CC(=O)O)CCN(CC(=O)O)CC1)C(C)C)C(=O)N[C@@H](CCC(=O)O)C(=O)N1CCC[C@H]1C(=O)N[C@@H](CC(=O)O)C(=O)N[C@H](C(=O)N[C@@H](CO)C(=O)N[C@@H](CCC(N)=O)C(=O)N[C@H](C(=O)N[C@@H](CCC(N)=O)C(=O)N[C@@H](CC(=O)O)C(=O)N1CCC[C@H]1C(=O)N[C@@H](CC(N)=O)C(=O)N[C@@H](CC(=O)O)C(=O)N[C@@H](CCC(N)=O)C(=O)N[C@@H](Cc1ccc(O)cc1)C(=O)N[C@@H](CCC(=O)O)C(=O)N1CCC[C@H]1C(=O)N[C@@H](Cc1ccccc1)C(=O)O)C(C)C)C(C)C [copper-64 labelled],,"C57BL/6 mice, male, tumour-free, blood",0.5 h,,tissue uptake,4.58 ± 0.3 %ID/g
O=C1NC2(CC2)COc2ncc(F)cc2[C@H]2COCCN2c2ccn3ncc1c3n2,,"Sprague-Dawley rats, male, blood","oral, 5 mg/kg/day, end of recovery, 4-week subacute toxicity",,basophil percentage,0.08 ± 0.04%

# Repeated from above:
Compound,test,system,conditions,scale,measurement,value
O=S(=O)(c1ccc2c(c1)OCO2)n1cc(CCCCN2CCC(=C(c3ccc(F)c(F)c3)c3ccc(F)c(F)c3)CC2)nn1,body weight,mouse,10 50 mg/kg,,tolerability,not toxic
